Measurements gathered from unrelated publications.
A part holds a random share of what one study measured. “And” joins repeats or separate records; there may be more than shown.
UniProt P15170, sequence (whole entry, looked up): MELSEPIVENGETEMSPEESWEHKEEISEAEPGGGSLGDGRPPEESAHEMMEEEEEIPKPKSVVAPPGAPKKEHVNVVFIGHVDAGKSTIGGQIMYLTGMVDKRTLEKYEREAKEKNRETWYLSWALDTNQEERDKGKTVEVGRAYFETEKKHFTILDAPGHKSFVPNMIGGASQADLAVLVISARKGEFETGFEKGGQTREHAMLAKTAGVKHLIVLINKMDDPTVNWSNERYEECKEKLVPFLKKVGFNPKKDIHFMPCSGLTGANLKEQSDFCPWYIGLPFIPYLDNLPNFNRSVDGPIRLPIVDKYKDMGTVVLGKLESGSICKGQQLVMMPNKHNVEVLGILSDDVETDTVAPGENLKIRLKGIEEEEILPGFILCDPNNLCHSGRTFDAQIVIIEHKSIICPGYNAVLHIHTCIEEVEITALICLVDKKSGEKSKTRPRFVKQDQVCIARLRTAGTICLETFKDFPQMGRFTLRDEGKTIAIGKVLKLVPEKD
UniProt Q9UJQ4, sequence (whole entry, looked up): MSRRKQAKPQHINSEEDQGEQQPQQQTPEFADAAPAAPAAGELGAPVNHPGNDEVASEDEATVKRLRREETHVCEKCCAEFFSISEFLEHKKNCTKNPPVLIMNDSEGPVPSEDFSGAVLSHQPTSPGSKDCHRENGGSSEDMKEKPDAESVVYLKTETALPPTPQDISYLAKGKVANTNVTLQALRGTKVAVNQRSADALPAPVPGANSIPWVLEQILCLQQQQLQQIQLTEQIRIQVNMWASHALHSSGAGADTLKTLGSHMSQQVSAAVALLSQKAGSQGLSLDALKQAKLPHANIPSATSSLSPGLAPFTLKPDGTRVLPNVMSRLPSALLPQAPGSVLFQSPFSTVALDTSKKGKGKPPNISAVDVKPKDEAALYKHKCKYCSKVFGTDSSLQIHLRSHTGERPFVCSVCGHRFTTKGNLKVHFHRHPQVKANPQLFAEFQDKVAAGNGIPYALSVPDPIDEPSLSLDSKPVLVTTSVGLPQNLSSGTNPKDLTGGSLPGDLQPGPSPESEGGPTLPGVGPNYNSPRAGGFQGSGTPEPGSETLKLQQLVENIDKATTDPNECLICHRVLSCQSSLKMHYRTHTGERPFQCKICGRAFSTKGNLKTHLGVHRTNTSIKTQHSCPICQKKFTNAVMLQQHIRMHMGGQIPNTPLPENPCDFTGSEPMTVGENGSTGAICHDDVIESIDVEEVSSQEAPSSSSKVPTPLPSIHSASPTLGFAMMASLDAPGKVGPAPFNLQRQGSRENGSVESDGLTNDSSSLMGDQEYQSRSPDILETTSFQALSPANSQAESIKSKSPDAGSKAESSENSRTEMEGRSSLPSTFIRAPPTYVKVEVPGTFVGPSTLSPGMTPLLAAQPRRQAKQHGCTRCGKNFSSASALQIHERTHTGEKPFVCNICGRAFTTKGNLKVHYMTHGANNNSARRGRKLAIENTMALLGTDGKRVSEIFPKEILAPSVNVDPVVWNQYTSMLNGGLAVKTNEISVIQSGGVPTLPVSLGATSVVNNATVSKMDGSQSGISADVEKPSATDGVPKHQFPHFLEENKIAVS

Sample 1
Target: Tyrosine-protein kinase Fyn (FYN, Homo sapiens, UniProt P06241)
UniProt P06241, sequence (whole entry, looked up): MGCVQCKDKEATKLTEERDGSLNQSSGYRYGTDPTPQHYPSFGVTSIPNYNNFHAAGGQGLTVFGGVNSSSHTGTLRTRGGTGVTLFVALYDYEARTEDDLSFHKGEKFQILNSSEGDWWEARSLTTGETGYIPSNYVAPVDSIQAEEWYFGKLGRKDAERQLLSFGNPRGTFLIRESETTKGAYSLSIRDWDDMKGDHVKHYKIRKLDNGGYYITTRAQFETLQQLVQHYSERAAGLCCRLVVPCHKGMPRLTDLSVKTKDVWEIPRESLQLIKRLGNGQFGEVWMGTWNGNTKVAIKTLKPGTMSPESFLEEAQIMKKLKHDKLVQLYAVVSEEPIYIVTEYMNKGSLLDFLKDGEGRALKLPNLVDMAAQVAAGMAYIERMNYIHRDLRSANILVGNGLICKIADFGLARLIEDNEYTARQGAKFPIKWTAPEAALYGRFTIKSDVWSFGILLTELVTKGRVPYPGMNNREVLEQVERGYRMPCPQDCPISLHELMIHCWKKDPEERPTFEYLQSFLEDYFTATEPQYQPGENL
Effect on: enzyme activity
Mode: inhibitor
Tested at: 0.5 µM
Relative to: control
Endpoint: remaining activity
Compound = Cc1cccc(-c2[nH]c(C(C)(C)C)nc2-c2ccc3c(c2)OCO3)n1; result = 108%
Compound = Cc1ccc(NC(=O)c2ccc(CN3CCN(C)CC3)cc2)cc1Nc1nc(-c2cccnc2)cs1; result = 37.3%
Compound = CN(C)c1ccc(C=C2C(=O)Nc3ccccc32)cc1; result = 104%
Compound = CO[C@H]1C[C@@H]2CC[C@@H](C)[C@@](O)(O2)C(=O)C(=O)N2CCCC[C@H]2C(=O)O[C@H]([C@H](C)C[C@@H]2CC[C@@H](O)[C@H](OC)C2)CC(=O)[C@H](C)/C=C(\C)[C@@H](O)[C@@H](OC)C(=O)[C@H](C)C[C@H](C)/C=C/C=C/C=C/1C; result = 109%
Compound = Nc1ccc2ncnc(NCCc3ccc(Oc4ccccc4)cc3)c2c1; result = 103%
Compound = COc1ccc(C(=O)Nc2sc3c(c2C(N)=O)CCCC3)cc1OC; result = 93.9%
Compound = Cn1sc(=O)n(Cc2ccccc2)c1=O; result = 105%
Compound = Cn1c2ccccc2c2c3c(c4c5ccccc5n(CCC#N)c4c21)CNC3=O; result = 90.6%
Compound = Nc1[nH]nc2nc3ccccc3nc12; result = 96.1%
Compound = O=C(O)c1ccc2c3c1cccc3c(=O)n1c3ccccc3nc21; result = 94%
Compound = O=C(CCCc1ccc(-c2ccccc2F)cc1)Nc1ccc(O)cc1; result = 94.7%
Compound = O=C1NC(=O)C(c2cn(CCCO)c3ncccc23)=C1c1cnccn1; result = 107%
Compound = Nc1ncnc2n[nH]c(Nc3ccc(F)cc3)c12; result = 93%
Compound = O=C(Nc1cccc(Nc2cc(Nc3cccc(C(F)(F)F)c3)ncn2)c1)C1CC1; result = 100%

Sample 2
SMILES: O=C1CCC(N2Cc3cc(C4CCN(Cc5ccccc5)CC4)ccc3C2=O)C(=O)N1 (stereo not shown)
Mode: degrader
Endpoint: remaining protein
CSNK1A1: Casein kinase I isoform alpha (CSNK1A1, Homo sapiens, UniProt P48729)
UniProt P48729, sequence (whole entry, looked up): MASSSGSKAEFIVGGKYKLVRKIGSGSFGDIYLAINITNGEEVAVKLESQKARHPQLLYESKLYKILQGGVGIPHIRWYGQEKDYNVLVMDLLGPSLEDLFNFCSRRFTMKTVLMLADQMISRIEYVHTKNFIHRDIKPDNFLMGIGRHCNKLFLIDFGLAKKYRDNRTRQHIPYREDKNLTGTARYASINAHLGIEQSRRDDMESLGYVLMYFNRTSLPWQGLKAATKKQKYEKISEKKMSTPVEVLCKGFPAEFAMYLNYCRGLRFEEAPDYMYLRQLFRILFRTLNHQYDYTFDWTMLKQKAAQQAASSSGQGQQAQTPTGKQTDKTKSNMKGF
target = Sal-like protein 4 (SALL4, Homo sapiens, UniProt Q9UJQ4); technique = HiBiT; cell line = HEK293; tested at = 0.004572 µM; result = 65.2% and 61.8%
target = CSNK1A1; technique = HiBiT; cell line = HEK293 HiBiT-CK1α; tested at = 4.572 nM; result = 98.6% and 86.7%
target = Eukaryotic peptide chain release factor GTP-binding subunit ERF3A (GSPT1, Homo sapiens, UniProt P15170); technique = HiBiT; cell line = HEK293; tested at = 0.0001694 µM; result = 110% and 111%
target = CSNK1A1; technique = HiBiT; cell line = HEK293; tested at = 1.111 µM; time = 6 h; result = 94.1%
target = CRBN/Zinc finger protein Helios (Homo sapiens, UniProt Q96SW2+Q9UKS7); technique = flow cytometry; cell line = primary human regulatory T cells; tested at = 5.08e-05 µM; time = 6 h; result = 107%
target = CSNK1A1; technique = HiBiT; cell line = HEK293 HiBiT-CK1α; tested at = 3333.33 nM; result = 103% and 84.5%
target = Zinc finger protein Eos (IKZF4, Homo sapiens, UniProt Q9H2S9); technique = HiBiT; cell line = HEK293; tested at = 5.08e-05 µM; time = 6 h; result = 112%

Sample 3
Compound: CCC(=N\O)/C(C)=C/c1ccc(F)cc1
Effect on: cell-free assay
Technique: competition with immobilised ligand
Tested at: 1 µM
Endpoint: remaining binding
target = Serine/threonine-protein kinase 33 (STK33, Homo sapiens, UniProt Q9BYT3); result = 100%
target = Mitogen-activated protein kinase kinase kinase kinase 4 (MAP4K4, Homo sapiens, UniProt O95819); result = 97%
target = Protein kinase C eta type (PRKCH, Homo sapiens, UniProt P24723); result = 100%
target = Serine/threonine-protein kinase RIO2 (RIOK2, Homo sapiens, UniProt Q9BVS4); result = 86%
target = Mitogen-activated protein kinase 14 (MAPK14, Homo sapiens, UniProt Q16539); result = 100%
target = Macrophage-stimulating protein receptor (MST1R, Homo sapiens, UniProt Q04912); result = 100%
target = Epidermal growth factor receptor (EGFR, Homo sapiens, UniProt P00533); result = 60%
target = Microtubule-associated serine/threonine-protein kinase 1 (MAST1, Homo sapiens, UniProt Q9Y2H9); result = 71%
target = Tyrosine-protein kinase JAK2, JH1 (JAK2, Homo sapiens, UniProt O60674); result = 71%
target = 5'-AMP-activated protein kinase catalytic subunit alpha-2 (PRKAA2, Homo sapiens, UniProt P54646); result = 88%
target = Phosphatidylinositol 4,5-bisphosphate 3-kinase catalytic subunit alpha isoform (PIK3CA, Homo sapiens, UniProt P42336); result = 100%
target = Serine/threonine-protein kinase pim-2 (PIM2, Homo sapiens, UniProt Q9P1W9); result = 83%

Sample 4
Target: DNA polymerase theta, ATPase domain (POLQ, Homo sapiens, UniProt O75417)
UniProt O75417, sequence (whole entry, unmodified, looked up): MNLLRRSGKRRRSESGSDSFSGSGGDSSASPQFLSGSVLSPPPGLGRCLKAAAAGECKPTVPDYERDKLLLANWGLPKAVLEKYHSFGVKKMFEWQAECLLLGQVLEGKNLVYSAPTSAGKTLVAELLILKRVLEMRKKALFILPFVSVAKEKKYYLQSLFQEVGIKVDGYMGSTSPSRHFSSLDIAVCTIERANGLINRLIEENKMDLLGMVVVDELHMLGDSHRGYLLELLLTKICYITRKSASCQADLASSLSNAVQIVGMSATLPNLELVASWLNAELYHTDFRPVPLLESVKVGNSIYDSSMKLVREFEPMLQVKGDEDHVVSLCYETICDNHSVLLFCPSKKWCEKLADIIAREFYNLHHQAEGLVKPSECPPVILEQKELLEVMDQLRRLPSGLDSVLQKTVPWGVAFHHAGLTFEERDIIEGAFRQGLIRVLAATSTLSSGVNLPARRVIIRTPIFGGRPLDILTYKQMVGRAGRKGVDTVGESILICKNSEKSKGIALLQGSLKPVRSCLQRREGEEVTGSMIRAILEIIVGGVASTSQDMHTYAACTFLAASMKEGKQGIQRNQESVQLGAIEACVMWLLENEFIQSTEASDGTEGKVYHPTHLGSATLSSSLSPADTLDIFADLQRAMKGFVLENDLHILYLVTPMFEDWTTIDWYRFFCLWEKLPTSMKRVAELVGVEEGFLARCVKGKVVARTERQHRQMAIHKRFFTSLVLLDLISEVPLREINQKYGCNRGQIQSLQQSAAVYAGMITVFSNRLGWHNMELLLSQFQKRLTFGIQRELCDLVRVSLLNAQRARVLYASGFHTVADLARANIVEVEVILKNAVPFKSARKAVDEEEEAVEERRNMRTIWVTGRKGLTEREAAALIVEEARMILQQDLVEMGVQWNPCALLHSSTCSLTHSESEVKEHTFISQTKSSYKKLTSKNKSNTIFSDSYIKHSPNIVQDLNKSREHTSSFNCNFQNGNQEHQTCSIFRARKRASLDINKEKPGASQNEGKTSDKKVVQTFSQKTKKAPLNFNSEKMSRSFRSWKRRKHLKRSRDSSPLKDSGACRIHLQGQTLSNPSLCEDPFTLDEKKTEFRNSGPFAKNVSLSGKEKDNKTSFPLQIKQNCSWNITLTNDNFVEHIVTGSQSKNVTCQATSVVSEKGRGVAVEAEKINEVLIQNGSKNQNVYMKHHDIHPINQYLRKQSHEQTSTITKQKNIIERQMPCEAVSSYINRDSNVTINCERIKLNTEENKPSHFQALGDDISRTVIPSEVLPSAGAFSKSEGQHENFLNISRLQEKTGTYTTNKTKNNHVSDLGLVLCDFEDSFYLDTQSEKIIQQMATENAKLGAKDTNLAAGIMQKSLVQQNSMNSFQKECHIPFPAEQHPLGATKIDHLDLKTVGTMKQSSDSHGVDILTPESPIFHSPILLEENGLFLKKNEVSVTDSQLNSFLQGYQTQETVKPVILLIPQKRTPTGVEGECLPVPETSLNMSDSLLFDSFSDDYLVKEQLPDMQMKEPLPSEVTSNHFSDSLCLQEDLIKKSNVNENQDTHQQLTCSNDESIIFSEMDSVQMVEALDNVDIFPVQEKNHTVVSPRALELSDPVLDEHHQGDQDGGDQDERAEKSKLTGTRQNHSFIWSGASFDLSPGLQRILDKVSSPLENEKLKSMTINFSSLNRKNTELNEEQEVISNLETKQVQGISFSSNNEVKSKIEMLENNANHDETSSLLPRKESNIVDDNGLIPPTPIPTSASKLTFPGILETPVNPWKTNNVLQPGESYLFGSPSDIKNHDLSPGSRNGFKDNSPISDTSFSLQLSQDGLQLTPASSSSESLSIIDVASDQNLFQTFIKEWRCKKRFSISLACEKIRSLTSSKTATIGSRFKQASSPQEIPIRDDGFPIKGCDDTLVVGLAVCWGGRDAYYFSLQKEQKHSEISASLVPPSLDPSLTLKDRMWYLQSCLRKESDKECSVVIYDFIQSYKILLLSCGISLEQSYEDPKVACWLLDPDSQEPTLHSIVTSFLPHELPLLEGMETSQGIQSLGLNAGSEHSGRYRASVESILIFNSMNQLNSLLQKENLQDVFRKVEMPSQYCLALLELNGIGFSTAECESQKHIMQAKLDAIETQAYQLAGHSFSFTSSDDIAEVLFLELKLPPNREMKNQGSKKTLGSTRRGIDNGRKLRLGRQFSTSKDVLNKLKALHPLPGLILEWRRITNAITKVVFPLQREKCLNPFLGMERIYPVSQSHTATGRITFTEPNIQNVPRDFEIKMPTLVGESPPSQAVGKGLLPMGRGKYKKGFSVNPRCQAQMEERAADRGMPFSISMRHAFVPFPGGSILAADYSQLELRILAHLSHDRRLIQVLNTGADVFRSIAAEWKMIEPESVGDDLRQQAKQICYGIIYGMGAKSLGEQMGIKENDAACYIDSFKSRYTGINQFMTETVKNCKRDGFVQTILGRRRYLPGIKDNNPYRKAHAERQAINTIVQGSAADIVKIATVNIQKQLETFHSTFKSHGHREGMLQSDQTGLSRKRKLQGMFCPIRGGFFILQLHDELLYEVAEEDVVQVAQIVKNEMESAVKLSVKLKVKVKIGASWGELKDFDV
Effect on: enzyme activity
Mode: inhibitor
Tested at: 77 µM
Relative to: untreated
Endpoint: remaining activity
SMILES = O=C(CCc1ccncc1)NNC(=O)N1Cc2ccccc2Oc2ccc(Cl)cc21; result = 102%
SMILES = Cc1cnc(-c2cc(N3CCN(C(=O)CCS(C)(=O)=O)CC3)ncc2Cl)c(C)c1; result = 90.3%
SMILES = CC(=O)N1CCN(c2ccc(OC[C@@H]3CO[C@@](Cn4ccnc4)(c4ccc(Cl)cc4Cl)O3)cc2)CC1; result = 152%
SMILES = Nc1ccc(N2C(=O)c3ccccc3C2=O)c(Cl)c1; result = 85.1%
SMILES = COc1ccc(-n2nc(C(N)=O)c3c2C(=O)N(c2ccc(N4CCCCC4=O)cc2)CC3)cc1; result = 89.6%
SMILES = CCCCCN(C)CCC(O)(P(=O)(O)O)P(=O)(O)O; result = 96.2%
SMILES = Cc1nc2sccn2c(=O)c1CCN1CCC(=C(c2ccc(F)cc2)c2ccc(F)cc2)CC1; result = 98%

Excerpt of the above (sample 4):
SMILES = Cc1cnc(-c2cc(N3CCN(C(=O)CCS(C)(=O)=O)CC3)ncc2Cl)c(C)c1; result = 90.3%
SMILES = CC(=O)N1CCN(c2ccc(OC[C@@H]3CO[C@@](Cn4ccnc4)(c4ccc(Cl)cc4Cl)O3)cc2)CC1; result = 152%
SMILES = Nc1ccc(N2C(=O)c3ccccc3C2=O)c(Cl)c1; result = 85.1%
SMILES = COc1ccc(-n2nc(C(N)=O)c3c2C(=O)N(c2ccc(N4CCCCC4=O)cc2)CC3)cc1; result = 89.6%
SMILES = CCCCCN(C)CCC(O)(P(=O)(O)O)P(=O)(O)O; result = 96.2%
